Measured values pooled from the literature.
Each line is one published result; not all experiments were run side by side. ± gives the spread as reported.
PHO4: PHO4 1-312 (Saccharomyces cerevisiae, UniProt P07270)
Sequence of UniProt P07270 (whole entry, looked up): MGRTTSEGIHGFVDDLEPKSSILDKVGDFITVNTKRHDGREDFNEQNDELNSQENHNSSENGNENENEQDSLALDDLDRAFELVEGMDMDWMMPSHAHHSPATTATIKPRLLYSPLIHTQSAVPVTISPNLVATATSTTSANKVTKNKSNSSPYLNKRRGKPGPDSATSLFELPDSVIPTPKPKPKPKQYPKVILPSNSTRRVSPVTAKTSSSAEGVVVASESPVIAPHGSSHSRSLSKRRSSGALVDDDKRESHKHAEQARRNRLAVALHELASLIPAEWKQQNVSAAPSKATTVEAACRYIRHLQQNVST
SPT15 full length assumed: SPT15 full length assumed (Saccharomyces cerevisiae, UniProt P13393)
Sequence of UniProt P13393 (whole entry, looked up): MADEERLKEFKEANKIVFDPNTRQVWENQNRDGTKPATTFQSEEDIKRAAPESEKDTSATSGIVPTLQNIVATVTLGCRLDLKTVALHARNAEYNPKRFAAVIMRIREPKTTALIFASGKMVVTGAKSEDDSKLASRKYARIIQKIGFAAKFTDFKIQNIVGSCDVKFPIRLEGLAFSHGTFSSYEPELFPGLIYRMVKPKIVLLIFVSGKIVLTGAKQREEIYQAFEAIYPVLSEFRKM
nac full length assumed: nac full length assumed (Escherichia coli, UniProt Q47005)
Sequence of UniProt Q47005 (whole entry, looked up): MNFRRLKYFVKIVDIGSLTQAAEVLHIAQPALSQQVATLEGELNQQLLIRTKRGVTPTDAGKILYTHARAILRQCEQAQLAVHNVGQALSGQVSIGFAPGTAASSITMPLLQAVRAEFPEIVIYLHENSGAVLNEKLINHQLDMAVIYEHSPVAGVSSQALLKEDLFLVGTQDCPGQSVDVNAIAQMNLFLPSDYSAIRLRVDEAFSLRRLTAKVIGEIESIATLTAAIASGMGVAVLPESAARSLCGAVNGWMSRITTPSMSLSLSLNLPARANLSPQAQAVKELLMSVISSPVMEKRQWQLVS
U2AF2: U2AF2 148-342 (Homo sapiens, UniProt P26368)
Sequence of UniProt P26368 (whole entry, looked up): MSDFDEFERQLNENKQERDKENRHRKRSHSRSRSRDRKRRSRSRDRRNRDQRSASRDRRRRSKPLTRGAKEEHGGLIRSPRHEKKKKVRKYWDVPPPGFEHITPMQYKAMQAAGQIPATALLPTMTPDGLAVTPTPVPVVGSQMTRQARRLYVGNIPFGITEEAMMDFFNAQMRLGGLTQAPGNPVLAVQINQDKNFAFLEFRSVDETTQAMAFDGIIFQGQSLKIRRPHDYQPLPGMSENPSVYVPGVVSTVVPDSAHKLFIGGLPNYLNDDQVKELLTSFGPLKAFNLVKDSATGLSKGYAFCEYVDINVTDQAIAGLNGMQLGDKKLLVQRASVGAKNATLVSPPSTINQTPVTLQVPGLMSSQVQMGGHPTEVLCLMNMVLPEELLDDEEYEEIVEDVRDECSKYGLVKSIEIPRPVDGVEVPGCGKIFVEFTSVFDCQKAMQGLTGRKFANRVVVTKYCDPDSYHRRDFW
PHO4 full length assumed: PHO4 full length assumed (Saccharomyces cerevisiae, UniProt P07270)
glnG full length assumed: glnG full length assumed (Escherichia coli, UniProt P0AFB8)
Sequence of UniProt P0AFB8 (whole entry, looked up): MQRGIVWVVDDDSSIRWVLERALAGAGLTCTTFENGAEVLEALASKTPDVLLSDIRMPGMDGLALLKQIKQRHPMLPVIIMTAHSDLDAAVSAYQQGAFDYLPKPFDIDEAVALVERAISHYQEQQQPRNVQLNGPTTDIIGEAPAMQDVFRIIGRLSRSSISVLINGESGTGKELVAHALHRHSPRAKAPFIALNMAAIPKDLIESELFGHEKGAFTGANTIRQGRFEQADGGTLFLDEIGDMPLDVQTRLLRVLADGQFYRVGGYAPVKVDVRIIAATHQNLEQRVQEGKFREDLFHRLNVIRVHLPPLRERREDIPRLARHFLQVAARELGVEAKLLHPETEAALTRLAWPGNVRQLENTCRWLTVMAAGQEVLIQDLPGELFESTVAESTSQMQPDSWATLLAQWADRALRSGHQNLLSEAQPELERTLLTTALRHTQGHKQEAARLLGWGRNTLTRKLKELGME
B1: TRIP13, human; sequence looked up; chain MDEAVGDLKQALPCVAESPTVHVEVHQRGSSTAKKEDINLSVRKLLNRHNIVFGDYTWTEFDEPFLTRNVQSVSIIDTELKVKDSQPIDLSACTVALHIFQLNEDGPSSENLEEETENIIAANHWVLPAAEFHGLWDSLVYDVEVKSHLLDYVMTTLLFSDKNVNSNLITWNRVVLLHGPPGTGKTSLCKALAQKLTIRLSSRYRYGQLIEINSHSLFSKWFSESGKLVTKMFQKIQDLIDDKDALVFVLIDEVESLTAARNACRAGTEPSDAIRVVNAVLTQIDQIKRHSNVVILTTSNITEKIDVAFVDRADIKQYIGPPSAAAIFKIYLSCLEELMKCQIIYPRQQLLTLRELEMIGFIENNVSKLSLLLNDISRKSEGLSGRVLRKLPFLAHALYVQAPTVTIEGFLQALSLAVDKQFEERKKLAAYI
B2: human neuraminidase 2; sequence looked up; chain MASLPVLQKESVFQSGAHAYRIPALLYLPGQQSLLAFAEQRASKKDEHAELIVLRRGDYDAPTHQVQWQAQEVVAQARLDGHRSMNPCPLYDAQTGTLFLFFIAIPGQVTEQQQLQTRANVTRLCQVTSTDHGRTWSSPRDLTDAAIGPAYREWSTFAVGPGHCLQLHDRARSLVVPAYAYRKLHPIQRPIPSAFCFLSHDHGRTWARGHFVAQDTLECQVAEVETGEQRVVTLNARSHLRARVQAQSTNDGLDFQESQLVKKLVEPPPQGCQGSVISFPSPRSGPGSPAQWLLYTHPTHSWQRADLGAYLNPRPPAPEAWSEPVLLAKGSCAYSDLQSMGTGPDGSPLFGCLYEANDYEEIVFLMFTLKQAFPAEYLPQ
Sequence of UniProt P09874 (whole entry, unmodified, looked up): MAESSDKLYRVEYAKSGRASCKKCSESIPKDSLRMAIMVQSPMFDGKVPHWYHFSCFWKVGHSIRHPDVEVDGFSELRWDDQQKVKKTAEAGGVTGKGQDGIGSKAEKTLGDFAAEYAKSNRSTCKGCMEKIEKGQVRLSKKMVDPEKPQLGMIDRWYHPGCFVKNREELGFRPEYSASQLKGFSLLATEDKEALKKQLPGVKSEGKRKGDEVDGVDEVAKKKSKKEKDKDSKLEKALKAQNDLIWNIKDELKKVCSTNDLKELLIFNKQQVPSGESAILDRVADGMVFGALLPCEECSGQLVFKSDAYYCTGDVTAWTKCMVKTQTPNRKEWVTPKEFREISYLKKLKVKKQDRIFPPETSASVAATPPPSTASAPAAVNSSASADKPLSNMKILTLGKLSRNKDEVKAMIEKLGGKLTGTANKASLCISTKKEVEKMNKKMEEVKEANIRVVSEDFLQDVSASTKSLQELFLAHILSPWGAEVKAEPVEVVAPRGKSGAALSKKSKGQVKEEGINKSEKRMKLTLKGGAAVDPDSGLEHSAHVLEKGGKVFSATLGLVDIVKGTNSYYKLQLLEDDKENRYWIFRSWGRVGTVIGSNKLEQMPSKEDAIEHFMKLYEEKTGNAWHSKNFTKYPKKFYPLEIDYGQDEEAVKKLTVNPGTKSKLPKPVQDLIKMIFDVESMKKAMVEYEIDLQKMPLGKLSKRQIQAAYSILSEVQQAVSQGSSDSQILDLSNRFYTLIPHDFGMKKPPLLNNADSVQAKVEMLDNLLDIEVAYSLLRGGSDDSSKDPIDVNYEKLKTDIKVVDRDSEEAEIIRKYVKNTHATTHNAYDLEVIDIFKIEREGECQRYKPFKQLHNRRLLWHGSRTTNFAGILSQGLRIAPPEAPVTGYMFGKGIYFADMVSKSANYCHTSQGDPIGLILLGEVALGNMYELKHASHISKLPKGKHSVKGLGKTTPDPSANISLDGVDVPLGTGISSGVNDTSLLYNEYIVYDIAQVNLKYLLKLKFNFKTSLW
Sequence of UniProt P29055 (whole entry, looked up): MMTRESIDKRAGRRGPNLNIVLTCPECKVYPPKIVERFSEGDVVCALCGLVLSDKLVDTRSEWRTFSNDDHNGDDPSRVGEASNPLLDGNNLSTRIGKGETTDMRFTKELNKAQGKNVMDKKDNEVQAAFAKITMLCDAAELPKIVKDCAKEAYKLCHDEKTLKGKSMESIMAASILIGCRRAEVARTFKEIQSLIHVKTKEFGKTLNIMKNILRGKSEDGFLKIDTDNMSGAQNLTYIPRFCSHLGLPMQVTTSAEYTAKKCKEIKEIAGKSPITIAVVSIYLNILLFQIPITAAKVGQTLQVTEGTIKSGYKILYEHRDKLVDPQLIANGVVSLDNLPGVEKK
Sequence of UniProt P07676 (whole entry, unmodified, looked up): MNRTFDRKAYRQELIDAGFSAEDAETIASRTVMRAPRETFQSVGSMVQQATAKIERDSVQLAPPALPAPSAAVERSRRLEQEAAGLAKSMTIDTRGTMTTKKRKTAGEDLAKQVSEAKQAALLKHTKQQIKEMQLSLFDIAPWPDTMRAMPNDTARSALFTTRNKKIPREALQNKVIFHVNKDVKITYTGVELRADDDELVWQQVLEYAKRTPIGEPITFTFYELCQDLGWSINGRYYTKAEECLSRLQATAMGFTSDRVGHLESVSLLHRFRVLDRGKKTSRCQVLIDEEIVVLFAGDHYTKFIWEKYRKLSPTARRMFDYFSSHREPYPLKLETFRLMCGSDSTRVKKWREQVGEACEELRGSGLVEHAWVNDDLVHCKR
Sequence of UniProt O95905 (whole entry, looked up): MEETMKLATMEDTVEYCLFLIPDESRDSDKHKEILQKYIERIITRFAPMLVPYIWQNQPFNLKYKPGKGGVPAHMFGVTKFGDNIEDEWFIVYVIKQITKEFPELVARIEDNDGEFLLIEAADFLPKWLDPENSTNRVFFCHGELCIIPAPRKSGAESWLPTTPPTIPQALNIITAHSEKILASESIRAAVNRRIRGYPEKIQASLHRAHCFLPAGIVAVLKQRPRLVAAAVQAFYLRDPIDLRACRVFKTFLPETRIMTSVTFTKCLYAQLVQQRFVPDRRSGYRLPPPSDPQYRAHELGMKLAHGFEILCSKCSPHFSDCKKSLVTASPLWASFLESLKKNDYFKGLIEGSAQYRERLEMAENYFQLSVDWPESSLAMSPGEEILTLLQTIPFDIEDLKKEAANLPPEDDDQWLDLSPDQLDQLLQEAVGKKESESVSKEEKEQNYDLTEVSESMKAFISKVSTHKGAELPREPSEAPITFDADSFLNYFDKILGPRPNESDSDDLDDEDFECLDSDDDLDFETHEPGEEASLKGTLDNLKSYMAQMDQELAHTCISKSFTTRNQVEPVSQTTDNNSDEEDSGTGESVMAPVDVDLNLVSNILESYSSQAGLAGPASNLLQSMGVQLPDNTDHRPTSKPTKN
Sequence of UniProt P17106 (whole entry, looked up): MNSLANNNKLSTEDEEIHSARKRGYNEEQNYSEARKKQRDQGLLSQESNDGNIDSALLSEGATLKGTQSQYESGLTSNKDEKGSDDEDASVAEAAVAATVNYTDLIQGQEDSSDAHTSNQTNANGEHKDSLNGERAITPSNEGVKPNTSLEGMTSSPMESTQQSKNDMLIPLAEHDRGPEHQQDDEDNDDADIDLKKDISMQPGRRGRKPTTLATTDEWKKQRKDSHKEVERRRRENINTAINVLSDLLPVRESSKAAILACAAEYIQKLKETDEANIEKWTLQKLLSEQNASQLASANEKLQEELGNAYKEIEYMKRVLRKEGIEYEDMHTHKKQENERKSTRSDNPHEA
Sequence of UniProt P15976 (whole entry, looked up): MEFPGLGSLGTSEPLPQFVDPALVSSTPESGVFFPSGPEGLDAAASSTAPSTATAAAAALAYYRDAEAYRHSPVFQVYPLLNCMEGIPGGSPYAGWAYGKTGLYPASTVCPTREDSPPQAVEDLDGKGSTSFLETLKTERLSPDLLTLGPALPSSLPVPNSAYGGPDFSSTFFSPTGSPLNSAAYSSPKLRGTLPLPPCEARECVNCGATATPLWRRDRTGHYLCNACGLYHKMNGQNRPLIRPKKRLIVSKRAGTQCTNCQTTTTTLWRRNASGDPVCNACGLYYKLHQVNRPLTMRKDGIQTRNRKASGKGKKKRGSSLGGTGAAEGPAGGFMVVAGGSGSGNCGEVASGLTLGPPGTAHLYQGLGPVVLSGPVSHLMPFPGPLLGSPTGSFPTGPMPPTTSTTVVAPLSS

Molecule	tested on	assay	test system	conditions	how to read	measurement	value
CAATACACTGTTATCAAACACACGTGTCGAGCTACTCGTTCGGTTATCCGGCGGTATGAC (dsDNA)	PHO4	MITOMI	double-stranded DNA, one strand shown	not purified		Kd	150 ± 3 nM
B1 (TRIP13, human)	CYB5R4 knockout human cells	PP4 interaction, 3xFLAG-PP4C IP-MS		concentration not given	reference: CYB5R4 KO over parental	log2 fold change	-1.77
DNA 1 CTAATATACACGGATACAAAAGAAATACACATAATTCAATTCAATCGGTCC / DNA 2 GGACCGATTGACTTGAATTATGTGTATTTCTTTTGTATCCGTGTATATTAG (dsDNA; blunt; C:T mismatch; 5'-amino-C6 primer)	SPT15 full length assumed	array	double-stranded DNA	TBP alone		Kd	21 ± 2 nM
RNA 1 GCAGUAGGGUGAGGGUGUUGGCAGGGAGCGCCCUCCCCCAUAGUGU / RNA 2 ACACUAUGGGGGAGGGCGCUCCCUGCCAACACCCUCACCCUACUGC (dsRNA)	MECP2 1-486 (Homo sapiens, UniProt P51608)	fluorescence polarization	double-stranded RNA	Hill coefficient 0.70		Kd	14.8 ± 1.5 nM
CATTCGCTTGCTATAAGTAGACCCAATGGAACTCATCATAAATGAGACTTTTACCTTATGA (dsDNA)	nac full length assumed	BLI	double-stranded DNA, one strand shown			Kd	5.21 nM
TCCTGAAGGGGCACCCTAGCTTGGTCCTATCGTCGTCAAGTCAATCGGTCC (dsDNA; 5'-amino-C6 primer)	SUA7 full length assumed (Saccharomyces cerevisiae, UniProt P29055)	array	double-stranded DNA, one strand shown	TFIIB alone		Kd	2.45 ± 0.77 nM
AGUUUAGUU (ssRNA)	U2AF2	sequencing of bound RNA	RNA	motif only		Kd	3740 nM
CAATACACTGTTATCATACACACGTGTCGAGCTACTCGTTCGGTTATCCGGCGGTATGAC (dsDNA)	PHO4	MITOMI	double-stranded DNA, one strand shown	not purified		Kd	170 ± 5 nM
CTGAAGGGGGGGCTATAAAAGTTAGTGGGGGCTCCTCAAGTCAATCGGTCC (dsDNA; 5'-amino-C6 primer)	SPT15 full length assumed	array	double-stranded DNA, one strand shown	TBP alone		Kd	1.09 ± 0.06 nM
CAATACACTGTTATCAGACACACGTGTCTAGCTACTCGTTCGGTTATCCGGCGGTATGAC (dsDNA)	PHO4	MITOMI	double-stranded DNA, one strand shown	not purified		Kd	107 ± 3 nM
TTTGCGTGGGCTGTGGTGCTTT (ssDNA)	traI 309-858 Q317A (Escherichia coli, UniProt P14565)	fluorescence titration	single-stranded DNA			Kd	10.9 ± 1.7 nM
AUCUUUAGU (ssRNA)	U2AF2	sequencing of bound RNA	RNA	motif only		Kd	7640 nM
GAUAAAGAUCAUGACAUCGACUACAAGGACGACGACGACAAGGUUGUGGAGCUGAUCGAGAAGCACCACCACCACCACCACAAAGUGGUGAUGAACUAA (RNA; predicted 2-5 helices)	FMR1 KH domains (Homo sapiens, UniProt Q06787)	fluorescence anisotropy		estimated, very weak		Kd	> 30000 nM
TCCTGAAGGGGCGACCTAGCTTGGTCCTATCGTCGTCAAGTCAATCGGTCC (dsDNA; 5'-amino-C6 primer)	SPT15 full length assumed	array	double-stranded DNA, one strand shown	TBP alone		Kd	2.45 ± 0.23 nM
CAATACACTGTTATCAGACGCACGTGTCGAGCTACTCGTTCGGTTATCCGGCGGTATGAC (dsDNA)	CBF1 1-351 (Saccharomyces cerevisiae, UniProt P17106)	MITOMI	double-stranded DNA, one strand shown	not purified		Kd	109 ± 5 nM
DNA 1 GATCGATCGATCGAATTCTCGATCGATCGATCGATTCAATTCAATCGGTCC / DNA 2 GGACCGATTGACTTGAATCGATCGATCGATCGAGAATTCGATCGATCGATC (dsDNA; 5'-amino-C6 primer)	SPT15 full length assumed	array	double-stranded DNA	TBP alone		Kd	2.18 ± 0.2 nM
AUUCUAUUU (ssRNA)	U2AF2	sequencing of bound RNA	RNA	motif only		Kd	670 nM
GAGGAGGAGGAGGAG (ssRNA)	ECD 1-644 (Homo sapiens, UniProt O95905)	FP	RNA			Kd	7100 ± 1900 nM
CAUUUUAGU (ssRNA)	U2AF2	sequencing of bound RNA	RNA	motif only		Kd	3060 nM
TCCTGAAGGAGCGCCCTAGCTTGGTCCTATCGTCGTCAAGTCAATCGGTCC (dsDNA; 5'-amino-C6 primer)	SPT15 full length assumed	array	double-stranded DNA, one strand shown	TBP alone		Kd	17.7 ± 0.99 nM
CAUCUGACU (ssRNA)	U2AF2	sequencing of bound RNA	RNA	motif only		Kd	11100 nM

Molecule	tested on	assay	test system	conditions	how to read	measurement	value
CGCGACAACGTGAGAACGTGATAACGTGCCAACGTGCGAACGTGCTAACGTGGCACTCCGGCGGTATGAC (dsDNA)	PHO4 full length assumed	MITOMI	double-stranded DNA, one strand shown	not purified		Kd	140 ± 10 nM
GGTAACTTAGCGTCTCGTTGTGATTAAGTTTGACGAGGAATGGAATGCGATGCGCATAACG (dsDNA)	nac full length assumed	BLI	double-stranded DNA, one strand shown			Kd	7430 nM
CAATACACTGTTATCAGACACACGTGTTGAGCTACTCGTTCGGTTATCCGGCGGTATGAC (dsDNA)	PHO4	MITOMI	double-stranded DNA, one strand shown	not purified		Kd	138 ± 4 nM
CCAGGCAGATAAGGAACAAC (ssDNA)	GATA1 200-319 (Homo sapiens, UniProt P15976)	fluorescence anisotropy	single-stranded DNA			Kd	< 1900 nM
B2 (human neuraminidase 2)	CYB5R4 knockout human cells	PP6 interaction, 3xFLAG-PP6C IP-MS		concentration not given	reference: CYB5R4 KO over parental	log2 fold change	0.12
UUCGUUUUU (ssRNA)	U2AF2	sequencing of bound RNA	RNA	motif only		Kd	1890 nM
CATTCGCAACCTATAAGTAAATCCAATGGAACTCATCATAAATGAGACTTTTACCTTATGA (dsDNA)	glnG full length assumed	BLI	double-stranded DNA, one strand shown			Kd	11700 nM
CAATACACTGTTATCACACACACGTGTCGAGCTACTCGTTCGGTTATCCGGCGGTATGAC (dsDNA)	PHO4	MITOMI	double-stranded DNA, one strand shown	not purified		Kd	152 ± 3 nM
TTGACAAAATTTGAAAGTTGGAAAAATTTTCCAATAAATAGAGGTAGGAATAAAATGGCAA (dsDNA)	ulaR full length assumed (Escherichia coli, UniProt P0A9W0)	BLI	double-stranded DNA, one strand shown			Kd	188 nM
CAATACACTGTTATCAGAGACACGTGTCGAGCTACTCGTTCGGTTATCCGGCGGTATGAC (dsDNA)	PHO4	MITOMI	double-stranded DNA, one strand shown	not purified		Kd	92 ± 2 nM
ATGCATTTCAATGCACCACGATAGTGCAACAAACCTGGCGTGCACCATGATGATCATTCCA (dsDNA)	glnG full length assumed	BLI	double-stranded DNA, one strand shown			Kd	5.52 nM
UGUGGCUCC (ssRNA)	U2AF2	sequencing of bound RNA	RNA	motif only		Kd	4860 nM
GCGGUGUAUAGCCUAAUCUUUACCGC (structured RNA)	PARP1 216-1014 del1-215 (Homo sapiens, UniProt P09874)	fluorescence polarization	folded RNA	Hill coefficient 0.80		Kd	69.1 ± 5.9 nM
GCAGCCCTGGTTAAAAACAAGGTTTATAAATATTGGTTTAAAAGCAGGTTAAAAGACAGGTTAGCGGTGG (ssDNA)	trfA 98-382 G254D/S267L/R347E (Escherichia coli, UniProt P07676)	SPR	single-stranded DNA			Kd	77 nM
ACCAGCCCATATAAATGTCACTGTGCCTCTAACTCTCAAGTCAATCGGTCC (dsDNA; 5'-amino-C6 primer)	SPT15 full length assumed	array	double-stranded DNA, one strand shown	TBP alone		Kd	2.13 ± 0.14 nM
CAATACACTGTTATCAGGCACACGTGTCGAGCTACTCGTTCGGTTATCCGGCGGTATGAC (dsDNA)	PHO4	MITOMI	double-stranded DNA, one strand shown	not purified		Kd	135 ± 3 nM
UUCUAAGCU (ssRNA)	U2AF2	sequencing of bound RNA	RNA	motif only		Kd	2470 nM
CGCGTCGACGTGTCTACGTGTGCACGTGTGGACGTGTGTACGTGTTCACGTGTTGCTCCGGCGGTATGAC (dsDNA)	PHO4 full length assumed	MITOMI	double-stranded DNA, one strand shown	not purified		Kd	32 ± 3 nM
DNA 1 GATTTAATATTAACTTATATATGTAAACTTATTTATCAATTCAATCGGTCC / DNA 2 GGACCGATTGACTTGATAAATAAGTTTACATATATAAGTTAATATTAAATC (dsDNA; 5'-amino-C6 primer)	SPT15 full length assumed	array	double-stranded DNA	TBP alone		Kd	10.8 ± 1.9 nM
human ME2 T76N		enzyme activity, activator, NADH absorbance	recombinant enzyme	range over 0 to 5 mM, pH 7.4	reference: wild type	activation fold	1.2

A few entries again:
Molecule	tested on	assay	test system	conditions	how to read	measurement	value
GCGGUGUAUAGCCUAAUCUUUACCGC (structured RNA)	PARP1 216-1014 del1-215 (Homo sapiens, UniProt P09874)	fluorescence polarization	folded RNA	Hill coefficient 0.80		Kd	69.1 ± 5.9 nM
AUCUUUAGU (ssRNA)	U2AF2	sequencing of bound RNA	RNA	motif only		Kd	7640 nM
CAATACACTGTTATCAAACACACGTGTCGAGCTACTCGTTCGGTTATCCGGCGGTATGAC (dsDNA)	PHO4	MITOMI	double-stranded DNA, one strand shown	not purified		Kd	150 ± 3 nM
